Experimental data gathered from unrelated publications.
± gives the spread as reported.

For COc1ccnc(C(=O)N[C@H]2COC(=O)[C@H](Cc3ccccc3)[C@@H](OC(=O)C(C)C)[C@H](C)OC2=O)c1OCOC(=O)C(C)C, the storage stability was 3 months (bovine liver; -18 °C).
CO[C@H]1C[C@@H]2CC[C@@H](C)[C@@](O)(O2)C(=O)C(=O)N2CCCC[C@H]2C(=O)O[C@H]([C@H](C)C[C@@H]2CC[C@@H](OC(=O)NCCOCCOCCOCCOCCOCCOCCOCCOCCC(=O)N3CCc4cc(Cn5nc(-c6ccc7oc(N)nc7c6)c6c(N)ncnc65)ccc4C3)[C@H](OC)C2)C[C@@H](O)[C@H](C)/C=C(\C)[C@@H](O)[C@@H](OC)C(=O)[C@H](C)C[C@H](C)/C=C/C=C/C=C/1C gave a headache incidence of 0% (patients with advanced solid tumours; intravenous, 6 mg weekly, grade 3 or higher).
CC(C)[C@@H]1NC(=O)CNC(=O)[C@H](CC(N)=O)NC(=O)[C@H](CCCNC(=N)N)NC(=O)[C@H](Cc2ccc(O)cc2)NC(=O)[C@H](C(C)C)NC(=O)[C@@H](NC(=O)[C@@H](NC(=O)[C@H](CC(N)=O)NC(=O)[C@H](Cc2c[nH]c3ccccc23)NC(=O)[C@H](C)NC(=O)[C@H](Cc2ccccc2)NC(=O)CN)C(C)C)CSSC[C@@H](C(=O)N[C@@H](Cc2cnc[nH]2)C(=O)N[C@@H](CCCNC(=N)N)C(=O)N[C@@H](CCCNC(=N)N)C(=O)N[C@@H](C)C(=O)N[C@@H](CC(N)=O)C(N)=O)NC(=O)[C@H](C(C)C)NC(=O)[C@H](CCCNC(=N)N)NC1=O gave a haematocrit of 40.9 ± 1.13% (ICR mouse, blood; intramammary, 10 mg/kg, day 5, 3 d dosing).
For CC(C)N(CCc1c[nH]c2cccc(OC(=O)CCCC(=O)O)c12)C(C)C.Cl, the half-life was 1.3 h (male beagle dog, plasma; subcutaneous, 1 mg/kg).
Clc1cccc(-c2ccc(Cl)c(Cl)c2)c1: “literature range factor” 1.2 (PDMS-water partitioning; PCB compilation; reference: maximum over minimum K).
CC/C(=C(\c1ccccc1)c1ccc(OCCN(C)C)cc1)c1ccccc1 gave an AUC(0-t) of 523 ng·h/mL (CD-1 mouse, male, plasma; intraperitoneal, 10 mg/kg).
COc1ccc(-c2c(-c3ccc(C#N)c(F)c3)nc(N3CCC(N)CC3)n(C)c2=O)cc1F — result for “treatment-related adverse event incidence”: 13% (item: Leukopenia; neuroendocrine neoplasm patients; oral, 60 mg, any grade, dose expansion).
Clc1cc(Cl)c(-c2cc(Cl)c(Cl)cc2Cl)cc1Cl gave a log K(PDMS-water) of 6.43 ± 0.05 (fresh water; 20 °C, S30-2 sampler, 30 µm).
CN(C(=O)n1cnc(-c2ccc[n+]([O-])c2)c1)C1CCCCC1 has a concentration of 73.9 ± 29.9 ng/g (Wistar rat, cerebral cortex; oral, 10 mg/kg/day, 4 h, repeated 5 days).
CC[C@H](C)[C@@H]1NC(=O)[C@@H]2CCCN2C(=O)[C@H](CC(C)C)NC(=O)[C@H](CC(C)C)NC(=O)CNC(=O)[C@@H](NC(=O)[C@@H](NC(=O)[C@H](CC(=O)O)NC(=O)CNC(=O)[C@@H](NC(=O)[C@H](C)NC(=O)CNC(=O)[C@H](CCCCN)NC(=O)[C@H](CC(C)C)NC(=O)[C@H](CC(C)C)NC(=O)[C@H](CCCCN)NC(=O)CNC(=O)[C@@H](NC(=O)[C@@H](N)CC(C)C)C(C)C)C(C)C)C(C)C)CSSC[C@@H](C(=O)O)NC1=O — result for “elimination half-life (beta)”: ~6.59 h (two-compartment model; female C57BL/6 mouse, plasma; intravenous, 10 mg/kg).
Clc1ccc(-c2c(Cl)ccc(Cl)c2Cl)cc1Cl — result for “literature range factor”: 2 (polyethylene-water partitioning; PCB compilation; reference: maximum over minimum K).
Under “grade ≥3 anaemia”, NC(=O)[C@H]1CCN(c2ncnc(N)c2F)C[C@@H]1N1CCC[C@@H](Nc2cc(Cl)cc(C(F)(F)F)c2)C1=O is recorded as 25% (B-cell malignancy patients; oral, 164 mg twice daily, dose).
COc1cc2c(Oc3ccc4[nH]c(C)cc4c3F)ccnc2cc1OCC1(N)CC1: “blurred vision incidence” 0% (paediatric refractory sarcoma patients; 8 mg).
Clc1cc(Cl)c(-c2c(Cl)cc(Cl)cc2Cl)c(Cl)c1: “literature range factor” 2 (polyethylene-water partitioning; PCB compilation; reference: maximum over minimum K).
O=C(Nc1ccccc1)C1CCN(C(=O)Oc2cccnc2)CC1 has a TEAE incidence of 13% (item: disturbance in attention; healthy female humans; concentration not given, safety set, all doses pooled).
CN1CCN(c2ccc(Nc3nccc(-c4cccc(Cl)c4)n3)cc2C(F)(F)F)CC1 gave a toxicity of 37 ± 32% (Danio rerio embryos; 5 µM, 5 d).
C1=Cc2nc1cc1ccc([n-]1)c(C1CC1)c1nc(cc3ccc([n-]3)c2C2CC2)C=C1.CC(=O)[O-].[Mn+3] gave a plasma concentration of 219 ng/mL (LC-MS/MS; Sprague-Dawley rat, plasma; oral gavage, dose not given, 360 min, individual rat Rat1).
The AUC(0-t) of Cc1ccccc1C(=O)NN=Cc1ccc(O)c(Br)c1 is reported as 121 ng·h/mL (normal C3H/HeN mouse, plasma; intravenous, 0.8 mg/kg).
For O=S(=O)(Nc1ccccc1)c1ccc(NC(=S)Nc2ccccc2)cc1, the haematocrit was 44% (male mouse, blood; oral, 80 mg/kg daily, 14 days).
The metabolized fraction of Cc1ccc(OCCc2cccc(F)c2)c(C(N)=O)c1 is reported as 88% (male CD-1 mouse liver microsomes; concentration not given, 5 min, pH 7.4).
With O=C(O)CCC(CP(=O)(O)O)C(=O)O (centres unmarked) the relative error was -6.8% (rat, plasma; 8 µg/mL, 28 days, -80 °C, long-term stability; reference: nominal concentration).
C[C@]1(CO)Cc2ncn(-c3ccc(C#N)c(Cl)c3)c2C(=O)O1 — result for “AUC0–tz ratio fed over fasted”: 103% (healthy humans; oral, 10 mg; reference: fasted).
For N.N.[Cl][Pt][Cl], the BUN was 33.1 ± 12 mg/dL (nude mice, serum; dose not given, 10 days).
The lymphocytes of COc1ccc2nc3cc(Cl)ccc3c(Nc3cc(CN4CCCC4)c(O)c(CN4CCCC4)c3)c2n1 is reported as 75.1% (mouse, blood; oral, 57 mg/kg, tolerability, mean).
For Fc1ccc([C@@H]2CCNC[C@H]2COc2ccc3c(c2)OCO3)cc1, the IC50 was 6.31 µM (Plasmodium falciparum; 7G8).
CNC(=O)CC1C(=O)N(C2CCN(C3CCC(C(C)C)CC3)CC2)c2ccccc21 (centres unmarked): “persistence of sedation” ~30 min (conscious Sprague-Dawley rat; intravenous bolus, 100 nmol/kg).
O=C(O)Cc1ccc(O)c(O)c1 has an IC50 of 5.01 µM (Plasmodium falciparum; W2).
For CN[C@H]1CC[C@@H](c2ccc(Cl)c(Cl)c2)c2ccccc21, “elimination rate constant” read 0.000112 s⁻¹ (CD-1 mouse, male, plasma; intraperitoneal, 10 mg/kg).
For CCc1ccc(CC/C=C/c2ccc3c(c2)C(=O)CC3)cc1, the CHCM was 332 g/L (Sprague-Dawley rat, female; oral, 30 mg/kg/day, 14 days).
For CCOc1cc(Oc2ccc(C(F)(F)F)cc2Cl)ccc1[N+](=O)[O-], “body weight gain” read 73.4% (rat male; 62.5 mg/kg, 8 days).
The median Cmax,ss of O[C@H]1CCCN[C@@H]1CCCn1cnc2c(Cl)c(Cl)ccc21 is reported as 385 ng/mL (healthy CYP2D6 intermediate metabolizers, plasma; oral, 150 mg multiple doses).
CC(C)C[C@H](NC(=O)[C@H](Cc1ccccc1)NC(=O)[C@H](Cc1ccccc1)NC(=O)Cc1ccc(-c2ccccc2)cc1)C(=O)N[C@@H](CCCCN)C(=O)N[C@@H](CCCNC(=N)N)C(=O)N[C@H](C(=O)N[C@@H](Cc1c[nH]c2ccccc12)C(=O)N[C@@H](CCCCN)C(=O)N[C@@H](CCCNC(=N)N)C(=O)O)C(C)C has a hepatic clearance of 16 mL/min/kg (human liver microsomes).
CC(C)CC(=O)OC[C@H]1O[C@@](C#N)(c2ccc3c(N)ncnn23)[C@H](O)[C@@H]1O — result for “recovery in urine”: 0.00199% (Sprague-Dawley rat, both sexes, urine; 80 mg/kg, time not given; reference: dose).
For CC1(C)[C@H](C(=O)O[C@H](C#N)c2cccc(Oc3ccccc3)c2)[C@@H]1C=C(Br)Br, the CLint was 1090 µL/min/mg (pooled human liver cytosol).
For C[C@@H](NC(=O)N1C(=O)[C@H](Cc2ccnc(N)c2)[C@H]1C(=O)O)C1CCCCC1, “incidence of moderate AEs” read 0% (healthy adult Chinese volunteers; continuous intravenous infusion, 0.6 mg/kg/h, 5-day infusion, CTCAE 5.0 grading).
For O=C(Nc1ccccc1)C1CCN(C(=O)Oc2cccnc2)CC1, “adverse event Palpitations” read 0% (healthy women; oral, 100 mg, 9 days).
CN1CC[C@@H](c2c(O)cc(O)c3c(=O)cc(-c4ccc(C(F)(F)F)cc4Cl)oc23)[C@@H]1CO — result for “patients with adverse event”: 0% (item: Neutropenia; relapsed B-cell malignancies or AML; oral, 100 mg, grade 3-4, continuous dosing).
CC(C)C[C@@H]1NC(=O)CNC(=O)[C@H](CC(N)=O)NC(=O)[C@H](CCCNC(=N)N)NC(=O)[C@H]([C@@H](C)O)NC(=O)[C@@H]2CSSC[C@@H]3NC(=O)[C@H]([C@@H](C)O)NC(=O)CNC(=O)CNC(=O)[C@H](C(C)C)NC(=O)[C@@H]4CSSC[C@H](NC(=O)[C@H]([C@@H](C)O)NC(=O)[C@H](CSSC[C@H](NC(=O)[C@H](C(C)C)NC(=O)[C@@H]5CCCN5C1=O)C(=O)NCC(=O)N[C@@H](CCC(=O)O)C(=O)N[C@@H]([C@@H](C)O)C(=O)N4)NC(=O)CNC(=O)[C@@H]1CCCN1C(=O)[C@H]([C@@H](C)O)NC(=O)[C@H](CC(N)=O)NC3=O)C(=O)N[C@@H](CO)C(=O)N[C@@H](Cc1c[nH]c3ccccc13)C(=O)N1CCC[C@H]1C(=O)N[C@@H](CCCCN)C(=O)N2 has a remaining peptide of 82 ± 1.9% (HPLC; ammonium bicarbonate; 180 µM, 14 days, pH 9.0, 25 °C, deamidation stability).
C[C@@H]1NC(=O)[C@H](CCCCNC(=O)CO/N=C/C(=O)NCCCC[C@@H]2NC(=O)[C@@H](Cc3ccccc3)NC(=O)[C@H](CC(=O)O)NC(=O)CNC(=O)[C@H](CCCNC(=N)N)NC2=O)NC(=O)CNC(=O)[C@@H]2CCCN2C(=O)[C@H](CCCCNC(=O)CO/N=C/C(=O)NCCCC[C@@H]2NC(=O)[C@@H](Cc3ccccc3)NC(=O)[C@H](CC(=O)O)NC(=O)CNC(=O)[C@H](CCCNC(=N)N)NC2=O)NC(=O)[C@H](CCCCNC(=O)CN2CCCNCCNCCCNCC2)NC(=O)[C@H](CCCCNC(=O)CO/N=C/C(=O)NCCCC[C@@H]2NC(=O)[C@@H](Cc3ccccc3)NC(=O)[C@H](CC(=O)O)NC(=O)CNC(=O)[C@H](CCCNC(=N)N)NC2=O)NC(=O)CNC(=O)[C@@H]2CCCN2C(=O)[C@H](CCCCNC(=O)CO/N=C/C(=O)NCCCC[C@@H]2NC(=O)[C@@H](Cc3ccccc3)NC(=O)[C@H](CC(=O)O)NC(=O)CNC(=O)[C@H](CCCNC(=N)N)NC2=O)NC1=O [copper-64 labelled] has a tissue uptake of 1.48 ± 0.37 %ID/g (normal mice, lung; intravenous, 0.74 MBq, 24 h post-injection).
CC(=O)c1c(C)c2cnc(Nc3ccc(C4CCN(CCS(C)(=O)=O)CC4)cn3)nc2n(C2CCCC2)c1=O has an unbound fraction of 0.026 (rats plasma).
Under “adverse event incidence”, [O-][S+]1CCc2nc(N3CCC(c4ncc(Cl)cn4)CC3)nc(NC3(CO)CCC3)c21 (centres unmarked) is recorded as 12.5% (item: Diarrhoea; healthy male humans; 6 mg twice daily).
